Assay results of several laboratories.
Lines come from different studies, so protocols differ.

`CCCn1cc(C)c2c(=O)[nH]c(-c3cc(S(=O)(=O)N4CCN(CC)CC4)ccc3OCC)nc21`: “TEAE leading to withdrawal” 0% (human; concentration not given).
`CC(C)c1nc(N(C)S(C)(=O)=O)nc(-c2ccc(F)cc2)c1/C=C/[C@@H](O)C[C@@H](O)CC(=O)O` — result for “TEAE discontinuation incidence”: 0% (healthy human volunteers; oral, 10 mg, 6 days, monotherapy; baseline: subjects).
`Cc1cc(C)c(CNC(=O)c2cc(Cl)c3c(c2C)O[C@@](C)([C@H]2CC[C@H](N(C)C)CC2)O3)c(=O)[nH]1`: “TEAE with dose interruption” 62.5 % patients (CTCAE v4.0; human, relapsed/refractory NHL; oral, 200 mg once daily, onset after cycle 1 day 1).
Under “TEAE of CTCAE grade ≥3”, `CCO` is recorded as 0% (human; concentration not given).
Under “TEAE leading to permanent discontinuation”, `CN1C(=O)[C@@H](NC(=O)c2nnc(Cc3ccccc3)[nH]2)COc2cccnc21` is recorded as 0% (phase I single ascending dose; human, male and female; oral, 800 mg, fasted).
`C[C@H](O)C(=O)C1=Nc2c(nc(N)[nH]c2=O)NC1`: “TEAE discontinuation incidence” 0% (healthy human volunteers; oral, 20 mg/kg, 4 days, monotherapy; baseline: subjects).
`C=CC(=O)N1CCC([C@@H]2CCNc3c(C(N)=O)c(-c4ccc(Oc5ccccc5)cc4)nn32)CC1` has a TEAE constipation of 4.7% (healthy human volunteers; oral, dose not given).
The TEAE incidence of `C[C@@H](c1nc(-c2ccc(C#N)cc2)cs1)[C@](O)(Cn1cncn1)c1cc(F)ccc1F` is reported as 11.1% (refers to: general and administration site disorders; healthy human; oral, 200 mg, 13 days, study).
`O=C(COc1ccc(Cl)cc1)NC12CC(c3nnc([C@H]4C[C@@H](OC(F)(F)F)C4)o3)(C1)C2` — result for “TEAE leading to discontinuation”: 14.3% (humans; 200 mg once daily).

Some of these lines once more:
`CC(C)c1nc(N(C)S(C)(=O)=O)nc(-c2ccc(F)cc2)c1/C=C/[C@@H](O)C[C@@H](O)CC(=O)O` — result for “TEAE discontinuation incidence”: 0% (healthy human volunteers; oral, 10 mg, 6 days, monotherapy; baseline: subjects).
